Experimental data of several laboratories.
Compare with care: the assays were run in different laboratories.
Target: Histone deacetylase 4 (HDAC4, Homo sapiens, UniProt P56524)
Chain of UniProt P56524 (whole entry, looked up): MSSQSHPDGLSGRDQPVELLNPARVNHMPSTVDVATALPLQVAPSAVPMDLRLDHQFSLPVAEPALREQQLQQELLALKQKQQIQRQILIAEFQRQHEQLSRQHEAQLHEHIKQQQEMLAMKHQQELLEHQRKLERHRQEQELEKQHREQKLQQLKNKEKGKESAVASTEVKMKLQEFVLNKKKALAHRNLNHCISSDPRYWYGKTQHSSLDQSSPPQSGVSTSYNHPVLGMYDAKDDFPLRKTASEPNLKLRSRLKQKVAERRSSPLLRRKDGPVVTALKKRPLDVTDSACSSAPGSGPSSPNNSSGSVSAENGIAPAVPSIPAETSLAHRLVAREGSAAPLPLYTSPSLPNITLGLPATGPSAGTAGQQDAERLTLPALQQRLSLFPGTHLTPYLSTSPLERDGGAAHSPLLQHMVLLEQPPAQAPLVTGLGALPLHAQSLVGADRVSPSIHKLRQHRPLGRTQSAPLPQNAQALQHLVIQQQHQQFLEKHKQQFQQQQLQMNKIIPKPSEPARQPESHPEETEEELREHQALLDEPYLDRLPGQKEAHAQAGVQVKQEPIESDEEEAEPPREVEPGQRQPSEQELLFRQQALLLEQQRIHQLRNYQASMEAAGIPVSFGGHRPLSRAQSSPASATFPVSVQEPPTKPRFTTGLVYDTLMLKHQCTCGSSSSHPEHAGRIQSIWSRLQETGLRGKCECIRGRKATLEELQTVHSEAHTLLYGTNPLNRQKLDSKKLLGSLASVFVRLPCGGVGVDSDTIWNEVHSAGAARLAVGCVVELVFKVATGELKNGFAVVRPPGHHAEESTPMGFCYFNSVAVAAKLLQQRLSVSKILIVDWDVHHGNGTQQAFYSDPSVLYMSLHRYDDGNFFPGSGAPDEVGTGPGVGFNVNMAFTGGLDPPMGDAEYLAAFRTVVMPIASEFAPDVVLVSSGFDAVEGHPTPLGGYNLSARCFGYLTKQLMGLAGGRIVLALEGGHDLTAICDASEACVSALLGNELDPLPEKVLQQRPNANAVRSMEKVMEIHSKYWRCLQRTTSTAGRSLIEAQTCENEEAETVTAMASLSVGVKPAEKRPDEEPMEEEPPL
Mode: inhibitor

N/C(=N\O)c1ccc2c(c1)Oc1ccccc1N2Cc1ccc(C(=O)NO)cc1
IC50 (enzyme activity): 0.87 µM

CN1CCN(C(=O)N(CCCCCCC(=O)NO)c2ccc(-c3ccc4cnn(C)c4c3)cc2)CC1
IC50 (enzyme activity, fluorescence): 1.5 µM

O=c1c2ccccc2sn1Cc1ccccc1
IC50 (enzyme activity): > 10 µM

Cc1ncc2c(n1)CN(C(=O)Nc1nc(-c3cccs3)ccc1N)C2
IC50 (deacetylase activity, recombinant enzyme): > 30 µM

N/C(=N\O)c1ccc2c(c1)N(Cc1ccc(C(=O)NO)cc1)c1ccccc1O2
IC50 (enzyme activity): 4.47 µM

COC(=O)c1ccc(Cn2sc3ccccc3c2=O)cc1
IC50 (enzyme activity): > 10 µM

Cn1cc2c(n1)CN(C(=O)Nc1nc(-c3ccc(F)cc3)ccc1N)C2
IC50 (deacetylase activity, recombinant enzyme): > 30 µM

O=C(CCCCCCNC(=O)c1cc(C(=O)c2ccccc2)cn1Cc1ccc(F)cc1)NO
IC50 (enzyme activity): > 50 µM

COCCn1cc2c(n1)CN(C(=O)Nc1nc(-c3ccc(F)cc3F)ccc1N)C2
IC50 (deacetylase activity, recombinant enzyme): > 30 µM

O=c1c2ccccc2[s+]([O-])n1-c1ccccc1 (stereo not shown)
IC50 (enzyme activity): > 10 µM

Some of these lines once more:
COCCn1cc2c(n1)CN(C(=O)Nc1nc(-c3ccc(F)cc3F)ccc1N)C2
IC50 (deacetylase activity, recombinant enzyme): > 30 µM
